Results of several laboratories.
Lines come from different studies, so protocols differ. “And” joins repeats or separate records; there may be more than shown. ± gives the spread as reported.
ATP2A2: ATP2A2 (Sus scrofa, UniProt P11607)
Sequence of UniProt P11607 (whole entry, looked up): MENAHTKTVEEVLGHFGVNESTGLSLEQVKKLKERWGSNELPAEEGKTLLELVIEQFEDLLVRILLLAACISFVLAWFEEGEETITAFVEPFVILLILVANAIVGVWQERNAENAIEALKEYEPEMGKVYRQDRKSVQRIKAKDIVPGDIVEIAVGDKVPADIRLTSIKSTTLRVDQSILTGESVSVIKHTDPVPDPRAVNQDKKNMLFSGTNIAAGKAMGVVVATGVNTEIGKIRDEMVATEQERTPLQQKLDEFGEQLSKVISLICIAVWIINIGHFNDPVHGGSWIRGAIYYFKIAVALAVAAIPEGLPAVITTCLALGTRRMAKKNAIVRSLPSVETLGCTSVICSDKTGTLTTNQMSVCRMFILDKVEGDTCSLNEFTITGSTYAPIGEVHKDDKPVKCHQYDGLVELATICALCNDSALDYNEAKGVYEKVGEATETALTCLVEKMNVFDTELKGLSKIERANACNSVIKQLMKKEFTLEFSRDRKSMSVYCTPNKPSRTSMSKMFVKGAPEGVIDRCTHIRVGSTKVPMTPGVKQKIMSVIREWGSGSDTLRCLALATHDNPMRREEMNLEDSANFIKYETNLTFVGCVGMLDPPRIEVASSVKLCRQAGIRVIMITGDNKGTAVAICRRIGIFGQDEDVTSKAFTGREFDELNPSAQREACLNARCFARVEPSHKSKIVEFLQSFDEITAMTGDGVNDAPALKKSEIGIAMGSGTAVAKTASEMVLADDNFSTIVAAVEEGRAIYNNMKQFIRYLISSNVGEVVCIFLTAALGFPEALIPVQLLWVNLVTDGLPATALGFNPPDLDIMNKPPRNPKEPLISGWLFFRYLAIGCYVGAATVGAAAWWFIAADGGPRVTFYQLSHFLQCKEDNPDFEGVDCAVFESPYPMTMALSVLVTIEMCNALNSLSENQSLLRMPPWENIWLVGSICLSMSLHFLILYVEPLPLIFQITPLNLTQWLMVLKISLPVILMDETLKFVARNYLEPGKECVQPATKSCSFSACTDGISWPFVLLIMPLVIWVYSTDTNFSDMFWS
Ppard: Peroxisome proliferator-activated receptor delta (Ppard, Mus musculus, UniProt P35396)
Sequence of UniProt P51575 (whole entry, unmodified, looked up): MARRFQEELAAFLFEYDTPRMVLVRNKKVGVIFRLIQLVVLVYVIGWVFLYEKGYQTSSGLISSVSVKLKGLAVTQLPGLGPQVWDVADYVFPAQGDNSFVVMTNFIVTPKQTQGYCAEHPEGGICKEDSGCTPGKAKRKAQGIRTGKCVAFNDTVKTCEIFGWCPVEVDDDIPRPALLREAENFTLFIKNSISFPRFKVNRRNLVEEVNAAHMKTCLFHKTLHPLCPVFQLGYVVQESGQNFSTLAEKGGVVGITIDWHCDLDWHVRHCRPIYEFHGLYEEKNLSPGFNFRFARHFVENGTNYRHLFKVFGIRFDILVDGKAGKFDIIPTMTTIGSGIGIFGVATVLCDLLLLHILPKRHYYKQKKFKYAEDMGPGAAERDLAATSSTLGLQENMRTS
Sequence of UniProt P35396 (whole entry, looked up): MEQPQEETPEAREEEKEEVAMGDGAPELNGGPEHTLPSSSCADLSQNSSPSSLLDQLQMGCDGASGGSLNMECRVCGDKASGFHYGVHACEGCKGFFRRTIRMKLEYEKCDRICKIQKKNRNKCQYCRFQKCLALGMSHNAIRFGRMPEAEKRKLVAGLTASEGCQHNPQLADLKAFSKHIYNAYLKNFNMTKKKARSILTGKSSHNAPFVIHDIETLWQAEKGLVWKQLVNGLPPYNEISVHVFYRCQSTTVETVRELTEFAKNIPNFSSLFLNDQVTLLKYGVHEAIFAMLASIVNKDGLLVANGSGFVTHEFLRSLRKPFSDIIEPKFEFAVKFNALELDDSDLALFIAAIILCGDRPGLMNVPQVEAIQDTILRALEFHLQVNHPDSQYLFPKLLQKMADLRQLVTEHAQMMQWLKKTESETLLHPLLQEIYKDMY
Sequence of UniProt P40337 (whole entry, looked up): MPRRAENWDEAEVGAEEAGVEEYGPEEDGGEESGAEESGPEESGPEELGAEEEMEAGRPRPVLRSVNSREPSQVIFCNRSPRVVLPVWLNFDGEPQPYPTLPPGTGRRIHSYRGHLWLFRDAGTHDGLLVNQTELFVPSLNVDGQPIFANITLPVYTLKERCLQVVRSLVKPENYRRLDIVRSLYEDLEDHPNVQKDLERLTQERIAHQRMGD
Sequence of UniProt P35368 (whole entry, looked up): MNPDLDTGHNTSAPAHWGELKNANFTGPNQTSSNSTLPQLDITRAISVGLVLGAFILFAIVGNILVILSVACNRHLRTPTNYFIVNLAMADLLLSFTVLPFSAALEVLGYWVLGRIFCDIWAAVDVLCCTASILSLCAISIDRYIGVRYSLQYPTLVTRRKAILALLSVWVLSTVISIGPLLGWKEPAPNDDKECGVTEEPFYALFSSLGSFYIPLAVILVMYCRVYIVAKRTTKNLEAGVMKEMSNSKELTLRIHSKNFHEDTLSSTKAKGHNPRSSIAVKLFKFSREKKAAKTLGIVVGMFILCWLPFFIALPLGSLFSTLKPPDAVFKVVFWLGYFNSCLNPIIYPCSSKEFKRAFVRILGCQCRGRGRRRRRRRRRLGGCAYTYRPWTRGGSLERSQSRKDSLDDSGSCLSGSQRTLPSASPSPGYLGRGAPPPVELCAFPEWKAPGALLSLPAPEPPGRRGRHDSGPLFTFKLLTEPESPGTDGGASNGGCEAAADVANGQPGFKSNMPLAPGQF
Sequence of UniProt P34995 (whole entry, unmodified, looked up): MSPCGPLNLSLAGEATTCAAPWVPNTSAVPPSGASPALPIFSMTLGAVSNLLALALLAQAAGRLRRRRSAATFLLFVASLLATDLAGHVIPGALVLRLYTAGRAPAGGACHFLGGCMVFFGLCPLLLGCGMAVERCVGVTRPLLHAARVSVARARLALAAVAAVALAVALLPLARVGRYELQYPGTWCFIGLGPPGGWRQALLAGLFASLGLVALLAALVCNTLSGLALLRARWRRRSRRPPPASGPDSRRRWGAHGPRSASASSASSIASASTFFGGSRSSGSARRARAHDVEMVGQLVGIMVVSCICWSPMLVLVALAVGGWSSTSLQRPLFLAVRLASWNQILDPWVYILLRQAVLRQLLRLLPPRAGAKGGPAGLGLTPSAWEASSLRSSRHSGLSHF
Sequence of UniProt Q05941 (whole entry, looked up): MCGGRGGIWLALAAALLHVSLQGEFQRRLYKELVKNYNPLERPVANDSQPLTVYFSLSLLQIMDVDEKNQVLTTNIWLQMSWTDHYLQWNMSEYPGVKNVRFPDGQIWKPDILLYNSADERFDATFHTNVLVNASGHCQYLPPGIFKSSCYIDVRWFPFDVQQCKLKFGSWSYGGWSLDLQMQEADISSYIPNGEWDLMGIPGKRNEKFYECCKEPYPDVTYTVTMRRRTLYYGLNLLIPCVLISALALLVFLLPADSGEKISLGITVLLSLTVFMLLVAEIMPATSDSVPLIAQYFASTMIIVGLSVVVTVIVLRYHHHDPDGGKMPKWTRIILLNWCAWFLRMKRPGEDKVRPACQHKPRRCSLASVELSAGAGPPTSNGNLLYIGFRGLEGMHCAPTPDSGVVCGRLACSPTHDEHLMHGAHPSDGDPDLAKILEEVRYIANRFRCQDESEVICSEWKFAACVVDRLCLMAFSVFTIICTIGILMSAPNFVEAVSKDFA
Sequence of UniProt Q96RI1 (whole entry, looked up): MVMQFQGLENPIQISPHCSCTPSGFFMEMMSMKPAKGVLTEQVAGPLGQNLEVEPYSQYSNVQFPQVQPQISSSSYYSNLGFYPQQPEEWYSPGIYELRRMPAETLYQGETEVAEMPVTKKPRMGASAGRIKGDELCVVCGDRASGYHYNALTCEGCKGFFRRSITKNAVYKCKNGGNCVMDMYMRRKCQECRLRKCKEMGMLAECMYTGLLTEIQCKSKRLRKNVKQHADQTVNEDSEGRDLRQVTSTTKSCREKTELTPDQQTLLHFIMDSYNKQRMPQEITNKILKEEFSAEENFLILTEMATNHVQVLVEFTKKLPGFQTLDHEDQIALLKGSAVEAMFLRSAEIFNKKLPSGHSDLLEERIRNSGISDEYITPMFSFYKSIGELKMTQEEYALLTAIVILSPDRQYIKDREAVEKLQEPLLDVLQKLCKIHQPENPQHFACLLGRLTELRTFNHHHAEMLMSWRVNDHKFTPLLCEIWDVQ
Sequence of UniProt P35414 (whole entry, looked up): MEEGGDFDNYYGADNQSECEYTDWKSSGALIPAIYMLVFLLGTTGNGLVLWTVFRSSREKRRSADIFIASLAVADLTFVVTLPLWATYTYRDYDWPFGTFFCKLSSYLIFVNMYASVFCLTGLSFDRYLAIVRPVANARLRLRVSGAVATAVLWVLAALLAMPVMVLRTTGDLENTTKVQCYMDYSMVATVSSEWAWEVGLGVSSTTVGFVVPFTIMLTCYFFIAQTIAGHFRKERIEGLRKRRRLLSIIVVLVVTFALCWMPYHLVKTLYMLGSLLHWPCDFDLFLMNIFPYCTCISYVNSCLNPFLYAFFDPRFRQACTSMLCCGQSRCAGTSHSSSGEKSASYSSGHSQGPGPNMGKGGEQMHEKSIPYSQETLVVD
Sequence of UniProt Q9H8M2 (whole entry, looked up): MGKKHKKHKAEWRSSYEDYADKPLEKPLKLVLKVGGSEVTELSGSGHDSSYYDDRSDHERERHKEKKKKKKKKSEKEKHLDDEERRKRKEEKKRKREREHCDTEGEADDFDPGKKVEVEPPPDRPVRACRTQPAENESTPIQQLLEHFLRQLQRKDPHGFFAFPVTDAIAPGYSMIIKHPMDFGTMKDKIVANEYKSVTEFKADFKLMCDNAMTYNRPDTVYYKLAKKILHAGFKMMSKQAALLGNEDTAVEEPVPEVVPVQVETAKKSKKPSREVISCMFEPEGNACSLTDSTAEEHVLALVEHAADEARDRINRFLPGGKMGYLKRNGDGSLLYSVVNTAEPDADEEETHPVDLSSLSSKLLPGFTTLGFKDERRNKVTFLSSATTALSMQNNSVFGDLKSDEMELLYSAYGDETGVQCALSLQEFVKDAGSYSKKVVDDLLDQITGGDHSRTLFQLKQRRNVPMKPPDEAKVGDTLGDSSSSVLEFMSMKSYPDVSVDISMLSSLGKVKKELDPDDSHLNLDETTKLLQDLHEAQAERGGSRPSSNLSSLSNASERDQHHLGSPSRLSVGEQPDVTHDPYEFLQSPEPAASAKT

| SMILES | tested on | test | system | conditions | how to read | measurement | value |
| --- | --- | --- | --- | --- | --- | --- | --- |
| Cn1cc(-c2ccc(-c3cncc(Cl)c3N3CCC4(CCNC4=O)CC3)cc2)cn1 | COLO 205 | gene expression, microarray, measured: ISG15 mRNA |  | concentration not given, 6 h | baseline: untreated cells | log2 fold change | 3 |
| COc1cc(-c2cn(C)c(=O)c3cnccc23)cc(OC)c1CN1CCN(CCCCCOc2cc(-c3scnc3C)ccc2CNC(=O)[C@@H]2C[C@@H](O)CN2C(=O)[C@@H](NC(=O)C2(F)CC2)C(C)(C)C)CC1 | VHL/BRD9 (Homo sapiens, UniProt P40337+Q9H8M2) | BRD9-VHL ternary complex, NanoBiT | HEK293T |  | baseline: DMSO | Emax | 847% |
| c1ccc(CCCCCOCCc2ccc3c(c2)CCN3)cc1 | ATP2A2 | ATPase Vmax increase, activator | pig microsomes | 0.1 to 50 µM | baseline: vehicle | Emax | ~44% |
| Cc1ccc(NC(=O)/C=C/c2cccs2)cc1 | Chrna7 (Rattus norvegicus, UniProt Q05941) | ion current, positive modulator |  | together with: acetylcholine 30 µM | baseline: control | Emax | 196 ± 14% |
| Nc1ncnc2c1ncn2[C@@H]1O[C@H](COP(=O)(O)CP(=O)(O)OP(=O)(O)O)[C@@H](O)[C@H]1O | P2X purinoceptor 1 (P2RX1, Homo sapiens, UniProt P51575, D97A) | calcium influx |  | 31.6 nM | baseline: ionomycin response | calcium influx | 1.9% and 1.41% and 5.65% and 4.39% |
| c1ccc(CCCCCOCCc2ccc3[nH]cc(C4CCCC4)c3c2)cc1 | ATP2A2 | ATPase Vmax increase, activator | pig microsomes | 0.1 to 50 µM | baseline: vehicle | Emax | 19 to 25% |
| CC[C@H](C)[C@H](NC(=O)[C@H](CCC(N)=O)NC(=O)[C@H](CCCNC(=N)N)NC(=O)[C@H](CO)NC(=O)[C@H](Cc1c[nH]cn1)NC(=O)[C@@H]1CCCN1C(=O)[C@H](C)NC(=O)[C@H](CO)NC(=O)[C@H](CC(C)C)NC(=O)CNC(=O)[C@@H]1CCCN1C(=O)[C@H](CCC(N)=O)NC(=O)[C@H](CCC(N)=O)NC(=O)[C@H](CCCNC(=N)N)NC(=O)[C@H](CO)NC(=O)CNC(=O)[C@H](CO)NC(=O)[C@H](CO)NC(=O)[C@H](CCC(=O)O)NC(=O)[C@@H]1CCCN1C(=O)[C@@H]1CCCN1C(=O)[C@@H]1CCCN1C(=O)[C@H](CO)NC(=O)[C@H](CC(C)C)NC(=O)[C@H](CO)NC(=O)[C@@H](NC(=O)CN)[C@@H](C)O)C(=O)N1CCC[C@H]1C(=O)N[C@@H](C)C(=O)N1CCC[C@H]1C(=O)N[C@@H](CCC(N)=O)C(=O)NCC(=O)N[C@@H](C)C(=O)N[C@H](C(=O)N[C@@H](CC(C)C)C(=O)N[C@H](C(=O)N[C@@H](CCC(N)=O)C(=O)N[C@@H](CCCNC(=N)N)C(=O)N[C@@H](CCC(=O)O)C(=O)N[C@@H](CCCCN)C(=O)N[C@@H](CC(=O)O)C(=O)N[C@@H](CC(C)C)C(=O)N1CCC[C@H]1C(=O)N[C@@H](CC(N)=O)C(=O)N[C@@H](Cc1ccc(O)cc1)C(=O)N[C@@H](CC(N)=O)C(=O)N[C@@H](Cc1c[nH]c2ccccc12)C(=O)N[C@@H](CC(N)=O)C(=O)N[C@@H](CO)C(=O)N[C@@H](Cc1ccccc1)C(=O)NCC(=O)N[C@@H](CC(C)C)C(=O)N[C@@H](CCCNC(=N)N)C(=O)N[C@@H](Cc1ccccc1)C(N)=O)C(C)C)C(C)C | KiSS-1 receptor (KISS1R, Homo sapiens, UniProt Q969F8, E193A) | IP1 accumulation, agonist, HTRF | HEK293 expressing E193A mutant | 1 h, 37 °C, low response, poor fit |  | Emax | 0.53% |
| CSc1ccc(C(=O)/C=C/c2cc(C)c(OC(C)(C)C(=O)O)c(C)c2)cc1 | Ppard | reporter gene, agonist, luciferase reporter | mouse |  | baseline: maximal control activation | Emax | 67% |
| C[C@@H]1C[C@H]2O[C@@]3(O[C@@H]2C(C)(C)O)[C@H](O)[C@@]2(C)[C@@H]4CC[C@H]5C(C)(C)[C@@H](O[C@@H]6OC[C@@H](O)[C@H](O)[C@H]6O)CC[C@@]56C[C@@]46CC[C@]2(C)[C@@H]13 | Bile acid receptor, with PGC1α (NR1H4, Homo sapiens, UniProt Q96RI1) | reporter gene, agonist, mammalian two-hybrid | COS-7 co-transfected with RXR |  | baseline: GW4064 | Emax | 24.9% |
| CCO[C@H](COc1ccc(C(F)(F)F)cc1)CSc1ccc(OCC(=O)O)c(C)c1 | Ppard | reporter gene, agonist, luciferase reporter | mouse |  | baseline: maximal control activation | Emax | 81% |
| CCCCC[C@H](O)/C=C/[C@H]1[C@H](O)CC(=O)[C@@H]1C/C=C\CCCC(=O)O | PTGER1 (Homo sapiens, UniProt P34995, F189A) | IP1 accumulation, agonist | AD293 | 1 h, EP1 F189A mutant |  | Emax | 39.2 ± 4.45% |
| CCCCCCCOCCc1ccc2[nH]cnc2c1 | ATP2A2 | ATPase Vmax increase, activator | pig microsomes | 0.1 to 50 µM | baseline: vehicle | Emax | 16.2 ± 2.9% |
| Cc1nc(CSc2nc(SCc3ccc(C(F)(F)F)cc3)nc(=O)[nH]2)cs1 | TOP2A (Homo sapiens, UniProt P11388) | decatenation |  | 7.8 µM, replicate 1 |  | decatenated DNA | 100% |
| CCOCc1nc(O)c(-c2nnc(Cc3ccc(Cl)cn3)o2)c(O)c1-c1c(OC)cccc1OC | Apelin receptor (APLNR, Homo sapiens, UniProt P35414) | Gα13/PDZ–RhoGEF activation, agonist, BRET biosensor | HEK293 |  |  | Emax | 80 ± 7% |
| Cc1cc(C)c(CNC(=O)c2cc(-c3ccc(CN4CCOCC4)cc3)cc3c2cnn3C2CCCC2)c(=O)[nH]1 | HBL-1 |  |  | 0.1 µM, 120 h |  | viability | 119% |
| CNC[C@H](O)c1cccc(O)c1 | ADRA1B (Homo sapiens, UniProt P35368) | calcium mobilization, agonist | COS-7, stably expressing receptor |  | baseline: 3 µM ionomycin | Emax | ~80% |
| O=C(CCCCCCC(=O)Nc1cccnc1)NO | HBL-1 |  |  | 0.5 µM, 120 h |  | viability | 81.3% |
| c1ccc(CCCCCOCCc2ccc3[nH]cnc3c2)cc1 | ATP2A2 | ATPase Vmax increase, activator | pig microsomes | 0.1 to 50 µM | baseline: vehicle | Emax | ~17% |

A few entries again:
| SMILES | tested on | test | system | conditions | how to read | measurement | value |
| --- | --- | --- | --- | --- | --- | --- | --- |
| Cc1cc(C)c(CNC(=O)c2cc(-c3ccc(CN4CCOCC4)cc3)cc3c2cnn3C2CCCC2)c(=O)[nH]1 | HBL-1 |  |  | 0.1 µM, 120 h |  | viability | 119% |
